Measured values from different studies.
Every numbered part comes from another study and shows a few of its results, in no order.

Block 1
Target: Interferon regulatory factor 7, full length, phosphomimetic (IRF7, Homo sapiens, UniProt Q92985, residues 1-503, S471D/S472D/S475D/S476D/S477D/S483D/S484D/S487D)
Method: protein-binding microarray
Molecule type: double-stranded DNA, one strand shown
Medium: in vitro
Tested at: 2200 nM top
Setting: 60-bp whole probe
Together with: salmon DNA 0.4 mg/ml
Baseline: random background probes
Reading: higher = stronger binding
Construct (chain): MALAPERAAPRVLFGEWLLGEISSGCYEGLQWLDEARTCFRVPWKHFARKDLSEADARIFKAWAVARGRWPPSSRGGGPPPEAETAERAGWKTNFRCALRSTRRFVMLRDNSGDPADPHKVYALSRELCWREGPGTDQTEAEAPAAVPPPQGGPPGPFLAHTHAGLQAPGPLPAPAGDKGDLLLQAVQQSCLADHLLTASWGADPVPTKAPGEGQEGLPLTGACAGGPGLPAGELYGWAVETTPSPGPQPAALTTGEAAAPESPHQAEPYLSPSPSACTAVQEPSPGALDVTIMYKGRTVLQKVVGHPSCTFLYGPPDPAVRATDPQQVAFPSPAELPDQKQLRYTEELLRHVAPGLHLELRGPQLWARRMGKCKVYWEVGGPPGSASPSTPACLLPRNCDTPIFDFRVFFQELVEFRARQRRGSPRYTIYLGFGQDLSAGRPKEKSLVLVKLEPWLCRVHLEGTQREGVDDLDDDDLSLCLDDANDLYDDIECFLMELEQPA
Strand | fitted relative affinity [z-score]
GCCTAGCACTCACGGATGATCTCTCTGACTGTGCTAGTCTTGATTCGCTTGACGCTGCTG | 0.388
GCCTAGCACGACGGATTCGGTATCGGGACGTGCTAGGTCTTGATTCGCTTGACGCTGCTG | 1.6
GCCTAGCACGATGAACTGGGGACTGGAGACGTGCTAGTCTTGATTCGCTTGACGCTGCTG | -0.36
GCCTAGCACTTAGTTTCCAGTTTCGATTAGTGCTAGGTCTTGATTCGCTTGACGCTGCTG | 10

Block 2
Target: Histone acetyltransferase KAT6A, both winged helices, GST fusion (KAT6A, Homo sapiens, UniProt Q92794, residues 1-181)
Method: protein binding microarray
Molecule type: double-stranded DNA, one strand shown
Medium: in vitro
Tested at: not given
Setting: 8-mer, flanks averaged, mean of 2 arrays, mostly near background
Baseline: not given
Reading: higher = stronger binding
Residues (chain): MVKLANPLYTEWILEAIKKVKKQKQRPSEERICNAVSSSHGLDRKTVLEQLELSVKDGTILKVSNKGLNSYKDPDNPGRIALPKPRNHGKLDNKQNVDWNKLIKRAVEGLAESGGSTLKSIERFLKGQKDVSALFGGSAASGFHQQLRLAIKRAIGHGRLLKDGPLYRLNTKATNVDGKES
Strand | E-score
CAATATGC | -0.0438
AAGATCAG | -0.0453
ACAAACAC | 0.059
CTCATTGA | 0.014

Block 3
Target: RNA binding protein fox-1 homolog 2, RRM domain, GST-SBP tag (RBFOX2, Homo sapiens, UniProt O43251-10, residues 100-194)
Method: RNA Bind-n-Seq
Molecule type: RNA
Medium: in vitro
Tested at: 365 nM
Setting: natural RNA segment, single round, ends assumed
Baseline: no-protein control
Reading: higher = stronger binding
Target sequence (chain): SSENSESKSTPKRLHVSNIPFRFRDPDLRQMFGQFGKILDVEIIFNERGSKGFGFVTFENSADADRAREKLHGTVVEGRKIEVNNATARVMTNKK
Strand | RBNS enrichment (R)
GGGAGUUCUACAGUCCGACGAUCGGGGAAGGUCUUUCAUCUCAGCCAUUUUCUCUUCCCCCCGCCCCCCCUUAGAUGGAGUCUUGCUCUGUCACCCAGGUUGGAGUGCAGUGGCACAAUCAGCUCACUGCAACUGGAAUUCUCGGGUGCCAA | 0.26
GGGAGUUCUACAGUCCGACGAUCAAGAUGGCCCCCGCACAGCCUUCAUCUCAUCCUGUGGGACUCUGACGUCACAGAACACCCAGGAAAGGGGAUUUCUGUGGUAUCACCGAGAACAUGUUAGCAGUCUGUCAUGGAAUUCUCGGGUGCCAA | 0.282
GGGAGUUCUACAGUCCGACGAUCGGAAUUUUGACAGGAUUUCUAGCAAGACAGAUUUCUUCUCGAAAGCUUUUCUUCCUCAGGAGUAUGAAUUUUCUGAGCUAGCUGCUGUAAAUUCAGUGAGGCUAAAGGGAUGGAAUUCUCGGGUGCCAA | 0.397
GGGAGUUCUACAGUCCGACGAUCGGUAGUACAAAAGGAUGUCUUUAAGGUGACAGAACUGGAAAAGAUACUCCCUGUGGGCAUUUUUAAAGAUGAUCAUUAAUCUAUAAGGAAUUUGCUAAGCUUUCUCUUGAUGGAAUUCUCGGGUGCCAA | 0.523
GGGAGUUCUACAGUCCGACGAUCGUGUCAGAAAUACUUAAACAGUGGUAAAUGCACAUGUUACUUUUAAAUCAUUAGGAUAACUCCUGUCUGGUUCCUAAUGAAUAAAAGGUGUGUUAAAUACCAAGAUUAUUUGGAAUUCUCGGGUGCCAA | 0.604
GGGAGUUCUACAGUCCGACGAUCGAGGCAAGGCAAAGUGAUAGUACACGGAAGCAGAACCGGAAACACCCAGGAACUGUUCAGAAAUCUCAGAAGAAAUCUGCUUCUCUUCGAUGGAAAGAUAUAAUUAACGAUGGAAUUCUCGGGUGCCAA | 0.369

Single results of other studies
Molecule | target | test | test system | conditions | scale | endpoint | result
PhoQ, residues 284 288 289 292 302 303 WVSSAF | PhoP, residues 12 14 15 18 19 SEGLL (Escherichia coli, UniProt P23836) | Sort-seq, measured: YFP reporter | E. coli | PhoQ-PhoP variant library, together with: 10 µM Mg2+ | baseline: high Mg2+ state, higher = stronger signaling | fold induction | 14
